Results gathered from unrelated publications.
Every numbered part comes from another study and shows a few of its results, in no order. Positions count from the first letter of the parent shown.

Set 1 — target: CCND3, cyclin fold, Cln2 fusion (human); technique: yeast growth competition, sequencing; sample: yeast; notes: weak parent motif; reference: not given; direction: higher = stronger binding
Starting sequence: CDKN1A docking peptide (human); SKACRRLFGPVDS
For `R6F`, “normalised enrichment score” read 0.207.
`R6H`: “normalised enrichment score” 0.136.
For `V11C`, “normalised enrichment score” read 0.363.
`V11P` — result for “normalised enrichment score”: -0.023.

Set 2 — technique: RNA Bind-n-Seq; form: RNA; sample: in vitro; concentration: 365 nM; reference: no-protein control; direction: higher = stronger binding
Target: RNA binding protein fox-1 homolog 2, RRM domain, GST-SBP tag (RBFOX2, Homo sapiens, UniProt O43251-10, residues 100-194)
Notes: natural RNA segment, single round, ends assumed
Target sequence (chain): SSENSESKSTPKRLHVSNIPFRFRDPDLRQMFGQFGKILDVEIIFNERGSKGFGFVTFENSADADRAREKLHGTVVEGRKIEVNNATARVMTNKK
Under “RBNS enrichment (R)”, `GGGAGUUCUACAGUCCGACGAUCUUUUUGCUGGGUUUAUUCGUGCUGGUUCAUCGUGAGUAAGAAGCCUGCCUUGCUGUUCCUGGGAAGAUGCCAUAGUUUUCGUUACUGGAUGUUUGGAGUAGAUACUGGUCUGGAAUUCUCGGGUGCCAA` is recorded as 1.79.
`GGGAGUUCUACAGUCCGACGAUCUGCCGAAGGGGACAGACUCCACUGCCAGACGGCCAGCCGUUUGCUGUCCUGCCGCCCGGCUCAGUCGGCCAGACUUCCUCUAGGAGUGGUGCUGCUACCUUGUAUGUUUAUGGAAUUCUCGGGUGCCAA`: “RBNS enrichment (R)” 1.84.
`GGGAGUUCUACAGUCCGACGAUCUAUAGAAGCUGUAUGUGUAAGGGUGACUUAAAUCAUAUGUCACAUUGUCUAAACUAUUCAGACACUUGGAGAAUAUUCUCCUUGAAUUAAAAAAGAUGAUUAAGAAGGAUUGGAAUUCUCGGGUGCCAA`: “RBNS enrichment (R)” 0.398.
`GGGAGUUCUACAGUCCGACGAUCCCUAGACAACACUUAAACUCAUAUGAAACAAAAAUUAAAAUACGUAUUACAAGUACUUGGAUUGUUCCUUAGUCAUUAAAUAGGAUAUAAAUUAGGUUGAGAAGGGGGUAUGGAAUUCUCGGGUGCCAA`: “RBNS enrichment (R)” 0.455.
Under “RBNS enrichment (R)”, `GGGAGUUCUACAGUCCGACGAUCCAUGAGUACAUUAAAAAUAAUUUAAUAGCCACAAUAUGAUGUUCUUUAAGCUGCAAAUUGAGUACACUGGGAAUCAACAAAUUUGAUGAAGCCUGUCUGUCUCUUCACCAUGGAAUUCUCGGGUGCCAA` is recorded as 0.499.
Under “RBNS enrichment (R)”, `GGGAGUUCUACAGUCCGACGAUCCUUUUGCACAAAUGCUUUAGAUUGUAUGGUCUACACUCAGGAAGACACUAGGUCACCCAGGCAAAGCCAGUGGACAGAUGCCUUUCAUAUAACCUGGGUGGGCUUUUGGAUGGAAUUCUCGGGUGCCAA` is recorded as 0.372.
`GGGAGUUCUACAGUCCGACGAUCUGGGGGGCCCCUUUGGGAGCAGGCCUGUGUAUCAGGUGACUUCUGUUGACCACUCUCUGAAUAGGCUUCUGUCUGGUACUAACUGGCCAUUACCAGAGAUGUCCUGUGACUGGAAUUCUCGGGUGCCAA`: “RBNS enrichment (R)” 0.24.

Set 3 — technique: universal PBM; form: double-stranded DNA, one strand shown; sample: in vitro; concentration: not given; direction: higher = stronger binding
Target: Sal-like protein 4, full length isoform B (SALL4, Homo sapiens, UniProt Q9UJQ4-2, residues 1-616)
Notes: 8-mer, flanks averaged, mean of replicates
Residues (chain): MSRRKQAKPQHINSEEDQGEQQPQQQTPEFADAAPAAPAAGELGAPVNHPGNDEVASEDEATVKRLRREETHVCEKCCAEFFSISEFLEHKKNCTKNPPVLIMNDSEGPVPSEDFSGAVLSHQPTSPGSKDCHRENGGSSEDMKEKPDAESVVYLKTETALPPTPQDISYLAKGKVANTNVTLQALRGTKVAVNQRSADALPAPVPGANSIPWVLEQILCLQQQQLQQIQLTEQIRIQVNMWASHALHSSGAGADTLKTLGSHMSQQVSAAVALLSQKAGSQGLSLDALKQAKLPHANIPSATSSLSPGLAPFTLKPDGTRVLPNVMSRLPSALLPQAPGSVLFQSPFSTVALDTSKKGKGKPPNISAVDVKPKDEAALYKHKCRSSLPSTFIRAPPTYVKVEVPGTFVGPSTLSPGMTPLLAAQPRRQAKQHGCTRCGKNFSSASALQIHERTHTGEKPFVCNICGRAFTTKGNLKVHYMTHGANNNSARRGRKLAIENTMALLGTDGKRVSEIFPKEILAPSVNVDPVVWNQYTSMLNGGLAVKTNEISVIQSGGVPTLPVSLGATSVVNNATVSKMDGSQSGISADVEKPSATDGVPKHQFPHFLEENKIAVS
The E-score of `CAAATGAA` is reported as 0.277.
`GAACCATC` gave an E-score of -0.071.
The E-score of `ATAGAGAT` is reported as 0.248.
`ATCTAAGA` has an E-score of 0.089.
With `CCTGTGGC` the E-score was -0.256.
For `ATTCCTGG`, the E-score was -0.0587.

Other studies, line by line
With `PhoQ, residues 284 288 289 292 302 303 AGGCYF` the fold induction was 13.2 (PhoP, residues 12 14 15 18 19 SQCLL (Escherichia coli, UniProt P23836); Sort-seq, item: YFP reporter; E. coli; PhoQ-PhoP variant library, with: 10 µM Mg2+; reference: high Mg2+ state, higher = stronger signaling).

Excerpt of the above (set 2):
Under “RBNS enrichment (R)”, `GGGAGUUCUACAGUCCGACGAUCCAUGAGUACAUUAAAAAUAAUUUAAUAGCCACAAUAUGAUGUUCUUUAAGCUGCAAAUUGAGUACACUGGGAAUCAACAAAUUUGAUGAAGCCUGUCUGUCUCUUCACCAUGGAAUUCUCGGGUGCCAA` is recorded as 0.499.
Under “RBNS enrichment (R)”, `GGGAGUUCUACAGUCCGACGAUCCUUUUGCACAAAUGCUUUAGAUUGUAUGGUCUACACUCAGGAAGACACUAGGUCACCCAGGCAAAGCCAGUGGACAGAUGCCUUUCAUAUAACCUGGGUGGGCUUUUGGAUGGAAUUCUCGGGUGCCAA` is recorded as 0.372.
